Measured values collected from several papers.
Each numbered part is a random draw from the data of one study; scales do not carry over between parts.

Study 1
Target: Fragile X messenger ribonucleoprotein 1, C-terminal low-complexity region (Fmr1, Mus musculus, UniProt P35922)
Technique: RNA Bind-n-Seq
Form: RNA
Medium: in vitro
Concentration: 200 nM
Setting: whole 134-nt RNA, ends assumed
Added: 150 mM LiCl
Baseline: input library
Reading: higher = stronger binding
All molecules: 7-deaza-guanosine replaces G
All sequences stand within: GGGAGUUCUACAGUCCGACGAUC … UGGAAUUCUCGGGUGUCAAGG
Strand	log2 enrichment
CCUGUGCUACACAUCGUAUGUACCGAAUCGGGGUUUUUGGGGUUUUUGGGGUUUUUGGGGAAAGUAUUAUGUUACGCCGUUCGGAUCUGC	-0.414
UCCUGUGCUACACAUCGUAUGUACCGAAUCGGGCCCCCCGGGCCCCCCGGGCCCCCCGGGAAAGUAUUAUGUUACGCCGUUCGGAUCUGC	-1.02
CCUCAAGUCCUGUGCUACACAUCGUAUGUACCGAAUCGGAAGGAAGGAAGGGGAAAGUAUUAUGUUACGCCGUUCGGAUCUGCACUUCCA	-0.929
CUGUGCUACACAUCGUAUGUACCGAAUCGGUUUUUUUGGGUUUUUUUGGGGUUUUUUUGGGAAAGUAUUAUGUUACGCCGUUCGGAUCUG	0.667
CCUGUGCUACACAUCGUAUGUACCGAAUCGGGGUUUUUGGGGAAAAAGGGGAAAAAGGGGAAAGUAUUAUGUUACGCCGUUCGGAUCUGC	-0.58
CUCAAGUCCUGUGCUACACAUCGUAUGUACCGAAUCGGUUGGUUGGGGUUGGGGAAAGUAUUAUGUUACGCCGUUCGGAUCUGCACUUCC	-1.32
GUCCUGUGCUACACAUCGUAUGUACCGAAUCGGGAAAAAGGGUUUUUGGGUUUUUGGGAAAGUAUUAUGUUACGCCGUUCGGAUCUGCAC	-2.59
UGUAGAAAAGGCACUGGACUAACACUUGGCUGUAUCUUGUAACAGGCAUGUUAUGUUACCCAGAGAACUUUCCAAACAAGUACCUAAAAC	0.689
AAAAUUUCCAGUACCUUUGUCACAAUCCUAACACAUUAUCGGGAGCAGUGUCUUCCAUAAUGUAUAAAGAACAAGGUAGUUUUUACCUAC	-1.41
GCAGGAAGUAAAAACAAAUGGAAAUGCUUCGGAUAGUGGCAGGGGUGGGGGUUGCUAAGGAAAGGGUGGGAUGAGAGUGGGUAAAGAGUU	1.41
GCAGGAAGUAAAAACAAAUGGAAAUGCUUCGGAUAGUGGCAGGGGUGGGGGUUGCUAAGGAAAGGGUGGGAUGGGAGUGAAAAAAGAGUU	1.36

Study 2
Target: Interferon regulatory factor 3, full length, phosphomimetic (IRF3, Homo sapiens, UniProt Q14653, residues 1-427, S386D/S396D/S398D/S402D/T404D/S405D)
Sequence of UniProt Q14653 (whole entry, unmodified, looked up): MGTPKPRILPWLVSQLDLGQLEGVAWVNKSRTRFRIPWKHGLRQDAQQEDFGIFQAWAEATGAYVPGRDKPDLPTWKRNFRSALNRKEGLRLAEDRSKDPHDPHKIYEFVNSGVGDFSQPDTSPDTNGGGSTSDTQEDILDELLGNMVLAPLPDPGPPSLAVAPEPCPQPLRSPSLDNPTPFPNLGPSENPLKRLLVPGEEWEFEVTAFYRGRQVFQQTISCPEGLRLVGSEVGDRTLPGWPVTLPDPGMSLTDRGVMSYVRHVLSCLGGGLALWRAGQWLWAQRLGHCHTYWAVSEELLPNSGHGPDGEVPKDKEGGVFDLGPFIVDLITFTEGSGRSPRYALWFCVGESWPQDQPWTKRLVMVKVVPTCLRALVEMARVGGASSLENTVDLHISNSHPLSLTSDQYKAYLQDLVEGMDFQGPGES
Technique: protein-binding microarray
Form: double-stranded DNA, one strand shown
Medium: in vitro
Concentration: 2540 nM top
Setting: 60-bp whole probe
Added: salmon DNA 0.4 mg/ml
Baseline: random background probes
Reading: higher = stronger binding
All sequences stand within: GCCTAGCAC … GTCTTGATTCGCTTGACGCTGCTG
Strand	fitted relative affinity [z-score]
AATGTTTTGTTTTTCATTATGTGCTAG	3.58
TCATATTAAAATTTCATACTGTGCTAG	1.32
TTCAGTTTCTCTTTCCTTCTGTGCTAG	7.17
GACGGACTTGGGTATCGGGACGTGCTA	-0.377
GACGATTTCGGTTTTCGAGACGTGCTA	5.7
TCATTTTTTTTTTCCCTACTGTGCTAG	2.02
TTCACTTTCTTTAACTCATTGTGCTAG	2.89
TTAGATTTCAGTTCCGATGAGTGCTAG	2.94
TTAGATTTCGGGACTGGGTTAGTGCTA	1.02
TTAGGTATCCTACTGATTTAGTGCTAG	2.2
TTAGGTTTCCTTCTCCTATAGTGCTAG	10.5
GACGGTTCCCTTTGCCTGACGTGCTAG	3.52
GCTTTTTCCCCCCTCACGCAGTGCTAG	1.96
TTAGTTTTCGGGTTTCGGTTAGTGCTA	4.46
TTAGGACTGGGTCACGGTTAGTGCTAG	-0.7
TTTGCTTTCCTTTGCTTTCTGTGCTAG	3.59
TTAGGTCTCCTACTACTTTAGTGCTAG	1.34
CCCTGTTTCCATCTCTCAAAGTGCTAG	7.72
GACGGTCTCGGCCTCGGGACGTGCTAG	-0.393
GCCGGTCTCCTTATCCTGACGTGCTAG	3.57
GACGGACTGGTCTATCGGGACGTGCTA	-0.499
TTAGATTTAGGGACTGGATTAGTGCTA	-0.462
GACGAACTGTGTCTCGAGACGTGCTAG	-0.144
TCAGCAAAAATGATTGGACTGTGCTAG	-0.598
TTAGATTTCTGGTTTCGATTAGTGCTA	3.05

Study 3
Target: Histone acetyltransferase KAT6A, both winged helices, GST fusion (KAT6A, Homo sapiens, UniProt Q92794, residues 1-181)
Technique: protein binding microarray
Form: double-stranded DNA, one strand shown
Medium: in vitro
Concentration: not given
Setting: 8-mer, flanks averaged, mean of 2 arrays, mostly near background
Baseline: not given
Reading: higher = stronger binding
Construct (chain): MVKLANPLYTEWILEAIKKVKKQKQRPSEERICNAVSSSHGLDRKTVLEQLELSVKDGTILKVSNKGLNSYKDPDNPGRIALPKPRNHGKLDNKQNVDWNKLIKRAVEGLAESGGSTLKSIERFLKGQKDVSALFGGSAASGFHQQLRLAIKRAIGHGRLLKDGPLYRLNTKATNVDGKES
Strand	E-score
GGGTGTGA	0.0209
TAAGCCAA	-0.131
CAGCAGGA	-0.247
ACATGACC	-0.0124
TTACCCAA	-0.266
AGCTCCCT	-0.164
GACTGCAA	-0.129
ATAAGCAA	-0.139
CAACCGAC	0.0705
AGAATTAT	-0.024
ACATGCTA	-0.0945
ATACTGAT	0.0345
AGTTCTCG	-0.0962
TGGTGGAA	-0.149
GCTAGTGA	-0.125
GTTGGGAA	-0.217
AACAAGTC	-0.0987
ATGAATAC	0.0438
GTTCGAGA	-0.0113
TCGCACGA	0.0338
ACGGGACA	0.26
ATGGTTAG	-0.0415
AGAAGTCG	-0.021
AGAAATGA	-0.0401
GTGAGACA	-0.0474

Study 4
Target: RNA binding protein fox-1 homolog 2, RRM domain, GST-SBP tag (RBFOX2, Homo sapiens, UniProt O43251-10, residues 100-194)
Technique: RNA Bind-n-Seq
Form: RNA
Medium: in vitro
Concentration: 365 nM
Setting: natural RNA segment, single round, ends assumed
Baseline: no-protein control
Reading: higher = stronger binding
All sequences stand within: GGGAGUUCUACAGUCCGACGAUC … UGGAAUUCUCGGGUGCCAA
Residues (chain): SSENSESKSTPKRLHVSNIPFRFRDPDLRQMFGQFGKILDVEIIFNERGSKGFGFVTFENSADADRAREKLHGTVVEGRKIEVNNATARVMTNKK
Strand	RBNS enrichment (R)
UAAGGAAUCACUGUGUACAAACUGGCCAAGUGCUUCUGUAGAUAACGUCAGUGGAGUAAAUAUUCGACAGGCCAUAACUUGAGUCUAUUGCCUUGCCUUUAUUACAUGUA	0.348
AUCAGUGCAUGACGUUUAAGGCCACGUAUAGUCCUAGCUGACGCCAAUAAUAAAAAACAAGAAACCAAGUGGGCUGGUAUUCUCUCUAUGCAAAAUGUCUGUUUUAGUUG	0.993
CCUGAGCUCUAGUUUUAAACUUUCUCCUGUUAAAAAAAUUGUACUUUUAUUUCAUGUAAACUGCCCCUCUGAGGAUUUGGGCAUAUUUUUUGGAAGGUGCCUAAUGCUUA	1.18
GGUGAGGAGGAGCACCUGGGCUCUCUACCCCUCUCCUCACAGAAGUACCUGAAACUAGGUCUGGGGCACUCCCAAUGCAGCGCCUUGUCAGCCAAGGUGGGCAGGCAGGG	0.745
UGGUUAUCAGUUAAAUUGAGGUGGACAUUAUUUCCCCAAUUUCACAACAGGAUUCACAUUGUUAAUUUAUAAAUCUAGACUUGGAGAAUUAAGGACUGAGAAAUGACCAU	0.442
UUCUGUCCUGAAAGCUUUGCCUCUUUCUUGGCAAAGUUUCUGGUAUGGUCAAGCUUGUAAAUAACCUUUUUUACAUUUUAAUCUUUUCCAUUAAUUAAGAGGUUGAAAAG	0.263
GUAAAUAUUCUGCCAUAGGAAUACUUCUGUCUACAUGCUUUCUCAUCCAAGAAUUCGUCAUCACGCUGCACAGGCUGCGUCUUUGACGGUGGGUGUUCCAUUUUUAUCCG	0.246
CUACCAAUCUGAAUUCGAGGCCCAUAUGAGAGGAGCUUAGAAACGACCAAGAAGAGAGGCUUGUUGGAAUCAAUUCUGCACAAUAGCCCAUGCUGUAAGCUCAUAGAAGU	0.32
AGAUACUCCCCUGAGUCCCCGAUCUAGGGCCAGCUGCAGAGGGCUCUCUCUAGGCAGAGCGUUCCUGGCCAGAGCUCUACCUCUUUGCCUCCUGCUGACCCCUGACAGCG	0.289
AUGUGUAGCUCUAUGUCAAAUAGAGGGGGAAUGGAGGACCCCCUCCUUCCUGCCUCAUGGCUGUUCUUGAAACAGCUUAGAGCGAUUCUAUGAAAAAAUGUAAUAAAAAA	0.439
GGGAAGCGGGGAGGGGCUGCGUGGCACAGCUAGUGGGCCUCCCCCUGCACAGCCCUGCAUGUACUAGCACCUUCAUCACUCCCCUCAGGGCAUGGUCUCAUCUCCGCAUC	6.46
UCAGUCUUUUCGGCAAGAACUUCAGAGAACUGUGACACUGGUUAUGAUGUGAUUUUGGGGGGUUUCAGGUACCUAAGCAUGAUUUUUAAAAUCACUUCUCUCUUUACAUA	24.8

A few entries again (study 3):
Strand	E-score
ATACTGAT	0.0345
AGTTCTCG	-0.0962
TGGTGGAA	-0.149
GCTAGTGA	-0.125
GTTGGGAA	-0.217
AACAAGTC	-0.0987
ATGAATAC	0.0438
GTTCGAGA	-0.0113
TCGCACGA	0.0338
